# Measurements gathered from unrelated publications.
# Compare with care: the assays were run in different laboratories. ± gives the spread as reported.
Structure (SMILES),assay,system,conditions,scale,endpoint,result
CC(C)C[C@@H](NC(=O)[C@@H](CCCNC(=N)N)NC(=O)[C@@H](Cc1c[nH]cn1)NC(=O)[C@@H](Cc1c[nH]c2ccccc12)NC(=O)[C@@H](Cc1c[nH]cn1)NC(=O)[C@@H](Cc1ccccc1)NC(=O)[C@H](NC(=O)[C@@H](Cc1ccc(O)cc1)NC(=O)CNC(=O)CNC(=O)CCOCCOCCOCCNC(=O)CN1CCN(CC(=O)O)CCN(CC(=O)O)CC1)[C@H](C)O)C(=O)N[C@H](CC(N)=O)C(=O)N1CCC[C@@H]1C(=O)O [gallium-68 labelled],,"C57BL/6 mice, B16-F10 tumour","60 min post injection, with: GP12 blocking",,tumour to blood ratio,0.53 ± 0.12
CCNc1cc2[o+]c3cc(NCC)c(C)cc3c(-c3ccccc3C(=O)OCCOCC[18F])c2cc1C,,rat,15 min,baseline: heart over blood,tissue uptake ratio,10.1
C[C@@H]1CC[C@H]2[C@@H](C)CO[C@@H]3O[C@@]4(C)CC[C@@H]1[C@]32OO4,item: compound,"rat, plasma","800 ng/mL spiked, three freeze/thaw cycles",,measured concentration,775 ± 42.8 ng/mL
CC[C@@H](C)[C@@H](NC(=O)[C@@H](C)NC(=O)[C@@H](CCCCN)NC(=O)[C@@H](CC(C)C)NC(=O)[C@@H](C)NC(=O)[C@H](NC(=O)[C@@H](Cc1c[nH]cn1)NC(=O)[C@@H](CC(C)C)NC(=O)[C@H](NC(=O)[C@H](NC(=O)[C@@H](CCCCN)NC(=O)[C@@H](CCCCN)NC(=O)[C@@H](C)NC(=O)[C@@H](CO)NC(=O)[C@@H](CCCCN)NC(=O)[C@@H](Cc1ccccc1)NC(=O)[C@H](NC(=O)[C@@H](CCCCN)NC(=O)[C@@H](CC(C)C)NC(=O)[C@@H](Cc1ccccc1)NC(=O)[C@@H](CO)NC(=O)[C@@H](CCCCN)NC(=O)[C@@H](Cc1c[nH]c2ccccc12)NC(=O)[C@@H](CCCCN)NC(C)=O)[C@H](C)O)[C@H](C)O)C(C)C)[C@H](C)O)C(=O)N[C@H](CO)C(=O)N[C@H](CO)C(N)=O,circular dichroism at 222 nm,benign buffer 50% TFE,5 °C,,mean residue ellipticity,34100 deg cm2/dmol
CCCCCCCC(=O)OC[C@H](NC(=O)[C@H](CO)NC(=O)CN)C(=O)N[C@@H](Cc1ccccc1)C(=O)N[C@@H](CC(C)C)C(=O)N[C@@H](CO)C(=O)N1CCC[C@H]1C(=O)N[C@@H](CCC(=O)O)C(=O)N[C@@H](Cc1cnc[nH]1)C(=O)N[C@@H](CCC(N)=O)C(=O)N[C@@H](CCCNC(=N)N)C(=O)N[C@H](C(=O)N[C@@H](CCC(N)=O)C(=O)N[C@@H](CCC(N)=O)C(=O)N[C@@H](CCCNC(=N)N)C(=O)N[C@@H](CCCCN)C(=O)N[C@@H](CCC(=O)O)C(=O)N[C@@H](CO)C(=O)N[C@@H](CCCCN)C(=O)N[C@@H](CCCCN)C(=O)N1CCC[C@H]1C(=O)N1CCC[C@H]1C(=O)N[C@@H](C)C(=O)N[C@@H](CCCCN)C(=O)N[C@@H](CC(C)C)C(=O)N[C@@H](CCC(N)=O)C(=O)N1CCC[C@H]1C(=O)N[C@@H](CCCNC(=N)N)C(=O)O)C(C)C,,"human, plasma","intravenous infusion, 1 µg/kg/h, 65 min infusion",,dose-normalised Cmax,3.87 ± 3.46
[11CH3]n1c(=O)n(CCCO)c(=O)c2c1nc(Oc1cccc(OC(F)(F)F)c1)n2Cc1ccc(Cl)cc1,PET,"cynomolgus monkey, male, brain",,baseline: 8 min over 120 min,brain SUV ratio,2.75 fold
[18F]c1ccc2cc(-c3cnc(N4CCOCC4)nc3)[nH]c2c1,dynamic PET,"Sprague-Dawley rats, both sexes, whole brain","intravenous, dose not given",,peak brain radioactivity,2.8 ± 0.15 SUV
CC[C@H](C)C(=O)N1CCC(NC(=O)Nc2ccc(OC(F)(F)F)c(F)c2)CC1,,healthy volunteers,"oral, 0.5 mg single dose",,subjects with limb injury TEAE,0%
N=C(N)NCc1ccc(C(=O)NCCCC[C@H](NC(=O)N[C@@H](CCC(=O)O)C(=O)O)C(=O)O)cc1[131I],,"SCID mouse, PC-3 xenografts, lungs",1 h,,tissue uptake,2.43 ± 0.38 %ID/g
Cc1cc(Nc2nc(C[C@@]3(C(=O)O)CCN(Cc4cccc(Cl)c4F)[C@H](C)C3)cc(C)c2F)n[nH]1,,"beagle dog, plasma","oral, 1 mg/kg, single dose",,half-life,4.8 h
COC1CC(OC2CCC3(C)C4CCC5(C)C(C6=CC(=O)OC6)CCC5(O)C4CCC3(O)C2)OC(C)C1OC1OC(CO)C(O)C(O)C1O (stereo not drawn),,rat liver S9,"1 and 3 µg/mL, 120 min",,metabolic stability,stable
COC(=O)C[C@](O)(CCCC(C)(C)OC(C)=O)C(=O)O[C@@H]1C(OC)=C[C@]23CCCN2CCc2cc4c(cc2[C@H]13)OCO4,,"CD1 mouse, kidney","oral, 1 mg/kg, 0.5 h",,tissue concentration,138 ng/mL
CC(C)[C@H](NC(=O)CNC(=O)[C@H](CCC(N)=O)NC(=O)[C@H](C)N)C(=O)O,,healthy human,"intravenous, 3 mg/kg single dose",baseline: subjects,subjects with adverse events,33.3%
O=C(CN1CCN(c2cc3c(cc2F)c(=O)c(C(=O)O)cn3C2CC2)CC1)Nc1ccc(Cl)cc1,,female BALB/c mice,"intravenous, 1.25 mg/kg, one-compartment model",,elimination rate constant k10,0.00203 min⁻¹
C=CCn1cnc2c(NCc3ccc(C)s3)nc(N[C@H](CC)CO)nc21,,,,,pKa2,-0.26
CCCCCCCCCCCCC(=O)O.O=C1CCCC2C3CCCN4CCCC(CN12)C34 (stereo not drawn),electrical conductivity,water,308.15 K,,standard Gibbs energy of aggregation,-8.61 kcal/mol
CN(C)C(CNC(=O)Nc1cc(C(F)(F)F)ccc1N1CCOCC1)c1ccncc1 (stereo not drawn),,"mouse, serum","intraperitoneal, 180 mg/kg single dose",,serum ALT,80 U/L
COc1cc2c3c(c4cc(OC)c(OC)cc4c2cc1OC)CN1CCCCC1C3 (stereo not drawn),,swine cells,24 (unit not given),,CC50,43.5 ± 7.4 µM
CCCCCCCCCCCCCCCC(=O)N[C@@H](CCCCNC(=O)[C@H](CCCCNC(=O)CCC(=O)NCCN(C)CCNc1ccnc2cc(C(F)(F)F)ccc12)NC(=O)CCC(=O)NCCN(C)CCNc1ccnc2cc(C(F)(F)F)ccc12)C(=O)N[C@@H](CS)C(=O)NCC(=O)NCC(=O)NCC(=O)N[C@@H](C)C(=O)N[C@@H](CCCNC(=N)N)C(=O)N[C@@H](CCCCN)C(=O)N[C@@H](CCCCN)C(=O)N[C@@H](C)C(=O)N[C@@H](C)C(=O)N[C@@H](CCCCN)C(=O)N[C@@H](C)C(=O)N[C@@H](C)C(=O)N[C@@H](CCCNC(=N)N)C(=O)N[C@@H](CCCCN)C(=O)N[C@@H](CCCCN)C(=O)N[C@@H](C)C(=O)N[C@@H](C)C(=O)N[C@@H](CCCCN)C(=O)N[C@@H](C)C(=O)N[C@@H](C)C(=O)N[C@@H](CCCNC(=N)N)C(=O)N[C@@H](CCCCN)C(=O)N[C@@H](CCCCN)C(=O)N[C@@H](C)C(=O)N[C@@H](C)C(=O)N[C@@H](CCCCN)C(=O)N[C@@H](C)C(=O)N[C@@H](C)C(=O)N[C@@H](CCCNC(=N)N)C(=O)N[C@@H](CCCCN)C(=O)N[C@@H](CCCCN)C(=O)N[C@@H](C)C(=O)N[C@@H](C)C(=O)N[C@@H](CCCCN)C(=O)N[C@@H](C)C(N)=O,,"C57BL/6 mice, cornea","topical, 700 µM, 140:1 ratio, with: 5 µM siGLO siRNA",,fluorescence persistence,≤ 24 h
COc1ccc(F)cc1S(=O)(=O)Nc1cnc2c(c1)C(=O)NCCO2,,"male C57BL/6 mouse, plasma","oral, 3 mg/kg, single dose",,Tmax,1 h
CC(C)C[C@@H](NC(=O)[C@@H](CCCCN)NC(=O)CNC(=O)CNC(=O)[C@@H]1CSSC[C@H](N)C(=O)NCC(=O)N[C@@H](CCCNC(=N)N)C(=O)N[C@@H](CCCNC(=N)N)C(=O)N[C@@H](C)C(=O)NCC(=O)NCC(=O)N[C@@H](CO)C(=O)N1)C(=O)N[C@H](C)C(=O)N[C@H](CCCCN)C(=O)N[C@H](CC(C)C)C(=O)N[C@H](C)C(=O)N[C@H](CCCCN)C(=O)N[C@H](CCCCN)C(=O)N[C@H](CC(C)C)C(=O)N[C@H](C)C(=O)N[C@H](CCCCN)C(=O)N[C@H](CC(C)C)C(=O)N[C@H](C)C(=O)N[C@H](CCCCN)C(=O)O,,"cynomolgus monkey, plasma","intravenous, 3 mg/kg, infusion",,AUC,8880 ng·h/mL

# For quick reference, copied from above:
Structure (SMILES),assay,system,conditions,scale,endpoint,result
CC[C@@H](C)[C@@H](NC(=O)[C@@H](C)NC(=O)[C@@H](CCCCN)NC(=O)[C@@H](CC(C)C)NC(=O)[C@@H](C)NC(=O)[C@H](NC(=O)[C@@H](Cc1c[nH]cn1)NC(=O)[C@@H](CC(C)C)NC(=O)[C@H](NC(=O)[C@H](NC(=O)[C@@H](CCCCN)NC(=O)[C@@H](CCCCN)NC(=O)[C@@H](C)NC(=O)[C@@H](CO)NC(=O)[C@@H](CCCCN)NC(=O)[C@@H](Cc1ccccc1)NC(=O)[C@H](NC(=O)[C@@H](CCCCN)NC(=O)[C@@H](CC(C)C)NC(=O)[C@@H](Cc1ccccc1)NC(=O)[C@@H](CO)NC(=O)[C@@H](CCCCN)NC(=O)[C@@H](Cc1c[nH]c2ccccc12)NC(=O)[C@@H](CCCCN)NC(C)=O)[C@H](C)O)[C@H](C)O)C(C)C)[C@H](C)O)C(=O)N[C@H](CO)C(=O)N[C@H](CO)C(N)=O,circular dichroism at 222 nm,benign buffer 50% TFE,5 °C,,mean residue ellipticity,34100 deg cm2/dmol
CCCCCCCC(=O)OC[C@H](NC(=O)[C@H](CO)NC(=O)CN)C(=O)N[C@@H](Cc1ccccc1)C(=O)N[C@@H](CC(C)C)C(=O)N[C@@H](CO)C(=O)N1CCC[C@H]1C(=O)N[C@@H](CCC(=O)O)C(=O)N[C@@H](Cc1cnc[nH]1)C(=O)N[C@@H](CCC(N)=O)C(=O)N[C@@H](CCCNC(=N)N)C(=O)N[C@H](C(=O)N[C@@H](CCC(N)=O)C(=O)N[C@@H](CCC(N)=O)C(=O)N[C@@H](CCCNC(=N)N)C(=O)N[C@@H](CCCCN)C(=O)N[C@@H](CCC(=O)O)C(=O)N[C@@H](CO)C(=O)N[C@@H](CCCCN)C(=O)N[C@@H](CCCCN)C(=O)N1CCC[C@H]1C(=O)N1CCC[C@H]1C(=O)N[C@@H](C)C(=O)N[C@@H](CCCCN)C(=O)N[C@@H](CC(C)C)C(=O)N[C@@H](CCC(N)=O)C(=O)N1CCC[C@H]1C(=O)N[C@@H](CCCNC(=N)N)C(=O)O)C(C)C,,"human, plasma","intravenous infusion, 1 µg/kg/h, 65 min infusion",,dose-normalised Cmax,3.87 ± 3.46
[11CH3]n1c(=O)n(CCCO)c(=O)c2c1nc(Oc1cccc(OC(F)(F)F)c1)n2Cc1ccc(Cl)cc1,PET,"cynomolgus monkey, male, brain",,baseline: 8 min over 120 min,brain SUV ratio,2.75 fold
